Published values gathered from unrelated publications.
A part holds a random share of what one study measured.

Sample 1
Target: Ras GTPase-activating protein-binding protein 1, RRM domain (G3BP1, Homo sapiens, UniProt Q13283)
Sequence of UniProt Q13283 (whole entry, looked up): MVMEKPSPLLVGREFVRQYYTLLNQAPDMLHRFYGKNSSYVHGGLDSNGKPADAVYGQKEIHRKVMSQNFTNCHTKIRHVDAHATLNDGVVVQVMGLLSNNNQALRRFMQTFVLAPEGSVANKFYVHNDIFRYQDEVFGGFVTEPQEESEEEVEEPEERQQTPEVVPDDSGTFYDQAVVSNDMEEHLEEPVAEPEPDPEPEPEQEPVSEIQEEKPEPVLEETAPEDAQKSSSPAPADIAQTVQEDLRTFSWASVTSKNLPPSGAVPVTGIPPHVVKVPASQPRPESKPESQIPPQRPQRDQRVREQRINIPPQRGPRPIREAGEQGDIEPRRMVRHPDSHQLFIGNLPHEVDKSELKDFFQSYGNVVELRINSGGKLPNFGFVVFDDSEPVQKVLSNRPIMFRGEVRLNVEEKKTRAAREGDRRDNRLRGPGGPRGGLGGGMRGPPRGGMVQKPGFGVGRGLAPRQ
Technique: RNA Bind-n-Seq
Form: RNA
Matrix: in vitro
Concentration: 1 µM
Notes: whole 134-nt RNA, ends assumed
Added: 150 mM KCl
Reference: input library
Direction: higher = stronger binding
Quantity: log2 enrichment
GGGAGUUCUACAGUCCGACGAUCUGGGAGGUGGAUUUUGUUUAUUUAUUUAGCUCAUUUCCAGGGGUGGGAAUUUUUUUUUAAUAUGUGUCAUGAAUAAAGUUGUUUUUGAAAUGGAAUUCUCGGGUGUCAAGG: 1.39
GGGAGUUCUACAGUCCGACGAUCAGUCCUGUGCUACACAUCGUAUGUACCGAAUCGGGGAGGGGAAAAAAAGGGGAGGGGAAAGUAUUAUGUUACGCCGUUCGGAUCUGCACUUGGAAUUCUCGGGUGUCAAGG: 1.06
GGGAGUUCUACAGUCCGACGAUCAGUCCUGUGCUACACAUCGUAUGUACCGAAUCGGCCCCCGGGGCCCCCGGCCCCCGGAAAGUAUUAUGUUACGCCGUUCGGAUCUGCACUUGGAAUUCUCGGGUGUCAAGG: -0.426
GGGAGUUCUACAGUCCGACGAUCAGUCCUGUGCUACACAUCGUAUGUACCGAAUCGGGGAAAAAGGGGAAAGGGGUGGGGAAAGUAUUAUGUUACGCCGUUCGGAUCUGCACUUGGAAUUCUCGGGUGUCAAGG: 0.885
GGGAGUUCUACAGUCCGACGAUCCAAGUCCUGUGCUACACAUCGUAUGUACCGAAUCGGUUUUUUUGGAAAAAGGAGGAAAGUAUUAUGUUACGCCGUUCGGAUCUGCACUUCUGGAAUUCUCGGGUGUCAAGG: -0.359
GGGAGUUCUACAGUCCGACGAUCACCAUGCAGGUGGGCAUCUUUGGGGAGUGGGGCAAGGGGGGGAUAGGGAGGGGGGUAACACUUUGGGAACAGGUGGUCCCAGGUCGUUUCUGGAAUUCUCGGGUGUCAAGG: -0.364
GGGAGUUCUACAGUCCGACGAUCUGGCCCUGGUGGCAUGCGGGGAGGAAGAGGUGGCCUCAUGGAUCGUGGUGGUCCCGGUGGAAUGUUCAGAGGUGGCCGUGGUGGAGACACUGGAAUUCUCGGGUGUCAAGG: 1.44
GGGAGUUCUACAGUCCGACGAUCACCAUGCAGGUGGGCAUCUUUGGGAAGUCGGGCAAGGGGGGGAUAGGGAGGGGGGUAACACUUUGGGAACAGGUGGUCCCAGGUCGUUUCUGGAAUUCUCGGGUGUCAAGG: -0.464
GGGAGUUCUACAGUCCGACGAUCCACAGACAACAAACACCCACACAGACACAGAGGGAAGGGGUUGGGAUGGGGACAGGGUGCACAGCAGGGCGGGGUAGGACCCCAGCCCCUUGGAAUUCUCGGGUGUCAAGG: -0.225
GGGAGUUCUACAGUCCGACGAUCUCAAGUCCUGUGCUACACAUCGUAUGUACCGAAUCGGCCCGGCCCGGGGCCCGGGAAAGUAUUAUGUUACGCCGUUCGGAUCUGCACUUCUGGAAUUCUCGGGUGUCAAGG: -0.535

Sample 2
Target: RNA binding protein fox-1 homolog 2, RRM domain, GST-SBP tag (RBFOX2, Homo sapiens, UniProt O43251-10, residues 100-194)
Technique: RNA Bind-n-Seq
Form: RNA
Matrix: in vitro
Concentration: 365 nM
Notes: natural RNA segment, single round, ends assumed
Reference: no-protein control
Direction: higher = stronger binding
Quantity: RBNS enrichment (R)
Target sequence (chain): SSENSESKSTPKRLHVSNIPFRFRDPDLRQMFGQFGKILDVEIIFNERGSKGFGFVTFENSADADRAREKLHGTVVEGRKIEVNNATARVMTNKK
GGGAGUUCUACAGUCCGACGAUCCUUCACACCAUGGGAUAAAUCUGUAUCAAGACGGUUCUUUUCUAGAUUUCCUCUACCUUUUUGCUCUUAAAACUGCUUCUCUGCUCUGAGAAGCACAGCUACCUGCCUUCUGGAAUUCUCGGGUGCCAA: 0.619
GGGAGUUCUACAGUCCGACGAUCUGAAAAUAAAGCAGUCUCGGGCAGAGACGCUGUGUGACAUGUUGGCUGACAAAUUAGUCAUUGCUUAAACACAGUUCAUGCAGAUUAAACACAAAUCAAGUUCCAAAUUUUGGAAUUCUCGGGUGCCAA: 0.305
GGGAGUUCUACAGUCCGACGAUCGGAUUGUGGGGAGAAAUCCCAGGUCAGGCCACAGCUGCAUGUUGCAUUAAAUGUGUUCUCAUGUCGCAGUUUGGCUCAUAGUGAUAAUAAUAGCUGGUAUGUAUCCAGCUUGGAAUUCUCGGGUGCCAA: 1.41
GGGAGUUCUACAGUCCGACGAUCCACUGCAACCUCUGCCUCCUGGGUUCAAGUGAUUCUCCAGCCUCAGCCUCCCGAGUAGCUGGGAUUAUGGGCGCCCACCACCAUGCCCAGCUAAUUUUUGUAUUUUUUUUUGGAAUUCUCGGGUGCCAA: 1.01
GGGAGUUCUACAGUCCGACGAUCGUGAAUAUGUUUGUUGCUACUUACAAUCCCGACCUGUUAGUCCCAGUAGUUUUGUUUUAACAUGGUCUUUUUCAACUUUGUUUCCUGUUUAACUACAGAUGACUUCUGUUUGGAAUUCUCGGGUGCCAA: 0.333
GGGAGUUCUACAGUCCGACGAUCUCAGAUUGUUUUAAAGAACUGUAACUUCACAAAAGUCAAUAUUAAAAAAUAAAUUAUUUAAGAACAAUUCUGAUGCUUUCUGUUAAUGAGUGCUGGAAGAAGAUAGGCUCUGGAAUUCUCGGGUGCCAA: 0.575
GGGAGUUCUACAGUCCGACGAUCAUAUCUAUGGUAUAUUAAAAGGAGCAGUCAUCAUAUACUACUGCAUUUCCACUGAAGAGCCAAAAGGCAUUUAAUAUAUAUGUUCAUGAAACAUACCUUUUUCCUCUUUAUGGAAUUCUCGGGUGCCAA: 0.515
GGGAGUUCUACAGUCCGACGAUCCUUUAUUGAUCUUUUGCAUGUCCCCCAAAGCCAGAAUCUGCUCAUGGAGGAAGGAAGGCUAAGAACUGUCCUUGAGGAACUUCAUCAGUAACUCUGGUAAAGCAUCCUGUUGGAAUUCUCGGGUGCCAA: 6.71
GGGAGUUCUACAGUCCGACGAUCCUGUUAACCAUGUACAAUAUUUAAAAUAGGCUUAUUUUGAUGUAUCGCCUAUUAUACAAACACACAAAACAUUUUUGGAGGCCUCAGUUAUGAGUGACAGAGCUUUCUGUUGGAAUUCUCGGGUGCCAA: 0.371

Sample 3
Target: RING finger protein unkempt homolog, zinc fingers 1-6, GST-SBP tag (UNK, Homo sapiens, UniProt Q9C0B0, residues 30-357)
Technique: RNA Bind-n-Seq
Form: RNA
Matrix: in vitro
Concentration: not given
Notes: RNA with constant flanks, human-mouse chimeric sites, ends assumed
Reference: input RNA pool
Direction: higher = stronger binding
Quantity: bound/input enrichment
Construct (chain): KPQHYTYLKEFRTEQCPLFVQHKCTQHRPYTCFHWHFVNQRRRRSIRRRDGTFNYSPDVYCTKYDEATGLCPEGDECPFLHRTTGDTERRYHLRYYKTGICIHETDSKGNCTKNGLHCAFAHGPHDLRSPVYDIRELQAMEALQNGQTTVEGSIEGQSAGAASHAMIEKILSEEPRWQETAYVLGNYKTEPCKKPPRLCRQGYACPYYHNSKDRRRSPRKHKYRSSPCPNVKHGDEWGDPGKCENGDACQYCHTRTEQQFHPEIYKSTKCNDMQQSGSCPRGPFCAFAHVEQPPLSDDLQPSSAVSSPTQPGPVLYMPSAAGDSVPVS
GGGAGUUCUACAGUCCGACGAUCUCUGAGGAUACCACUGAGAGACCUUAAAAGAAUCAUUUGAGGGCUCUGUUCGUGCAAGAAUAGUCACUGAUCGGGAAACUGGUUCUUCCAAAGGGUUUGGUUUUGUAGACUUUAAUAGUGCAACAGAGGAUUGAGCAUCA: 0.634 ratio
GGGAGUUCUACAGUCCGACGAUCAACAGAUUGUCUUUAAGCAUUCCAAGCGAGAAUGCUGGGGUGAUCAUUGUUGCCCAUGUGCCUUCUGACUGAGCUUUUAAUUAAUUGAUCCUUGAUGCUUUCCUUCACUCCAGAAUUGUUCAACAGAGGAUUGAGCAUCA: 0.234 ratio
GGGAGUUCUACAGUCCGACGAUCGUAUUUGUGCGCUCCCCACUCGUGUUUUUAAGUGUAUUUUUAUAAGAUACAUGUAUUUACAAUUGAGCUUUUGUUACAUAAUGCUGAAAUGCUACUGGAGAUUAUGAAAAAUGUUUCAAUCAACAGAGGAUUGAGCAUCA: 0.127 ratio
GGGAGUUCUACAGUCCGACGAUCAUGGAACAUUUCGAUGCGUCACUCAGUACCUAUUUCAAGGCCUUCCUGGGCCCCCGAGAUACUAGAGUCAAAGGAUGGUUUCUUCUGGACAAUUACAUCCCUACGUUUGUCUGUUCUGUUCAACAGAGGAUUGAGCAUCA: 0.0961 ratio
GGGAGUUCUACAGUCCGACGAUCGUGACUGGUGUUAAGAUUUCCCCUCAGCAAAGAAGUGCAGUAGUCACCAUAAUUCCAUCUGUGGUGAGUGCCAGUCAGAUAAAAGAGCUGGUCCCAGACCUCAGUUUAGAUACUGGGACUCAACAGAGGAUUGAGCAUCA: 0.227 ratio
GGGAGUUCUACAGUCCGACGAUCCACGUGUCUGCAGUGCUUGAUGUGGACUACUCUCCCACUGGGAAGGAAUUUGUGUCUGCCAGCUUUGAUAAGUCUAUUAGAAUCUUUCCUGUAGACAAGAGCCGAAGCAGGGAAGUGUAUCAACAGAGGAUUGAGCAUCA: 0.576 ratio
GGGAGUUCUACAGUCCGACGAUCGUAAUGGACGUCAACACUGCUCUACAAGAGGUGCUGAAGACUGCCCUCAUCCACGAUGGCCUAGCACGUGGAAUUCGCGAAGCUGCCAAAGCCUUAGACAAGCGCCAAGCCCAUCUGUGUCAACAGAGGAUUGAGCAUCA: 0.676 ratio
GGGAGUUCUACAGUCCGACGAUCUUCAAAGGCUGUGUUAUCUGUGUCAUUUCAUAAGUAACUCUGGGGGAGGGAAAUUCUGUUCUUUUGUUUAAUUUUCCCCCAAAUGAAGCCAAAGUGUGUGUUGAAGAACUGAGAAAAAAUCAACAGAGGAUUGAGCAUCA: 0.311 ratio
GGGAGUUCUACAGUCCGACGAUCUCAGGAACCCAGACAAAUAUGAAUGUAAAUGAAGUCAUUAGCAACAGAGCAAUUGAAAUGUUAGGAGGUGAACUUGGCAGCAAGAAGCCUGUGCACCCCAACGAUCAUGUUAACAAAAGCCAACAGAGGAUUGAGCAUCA: 0.512 ratio
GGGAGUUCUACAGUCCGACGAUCGUUCGGCUUUGGGAUCAUGCCACAAUGACAGAAGUGAAAUCUCUGAAUUUUAAUAUGUCUGUUAGCAGCAUGGAGUAUAUUCCUGAGGGAGAGAUUUUGGUUAUUACUUAUGGACGAUCUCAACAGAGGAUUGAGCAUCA: 0.52 ratio
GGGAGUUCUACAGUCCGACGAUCGGCCUGGGACCGUCCUGGGCUAGUACAAAUAGCGGCAGUGGAGGCUCAGAGGAAAGUUUUGUUAGUGAGGCAGUGGUUAGAGGCCGUCAUGUACGGUCCUUUACUCGAUAGAUGUGUUCUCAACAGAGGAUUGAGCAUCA: 0.675 ratio

Sample 4
Target: Myc proto-oncogene protein, bHLH-zipper, MAX partner unstated (MYC, Homo sapiens, UniProt P01106, residues 368-449)
Sequence of UniProt P01106 (368-449, looked up): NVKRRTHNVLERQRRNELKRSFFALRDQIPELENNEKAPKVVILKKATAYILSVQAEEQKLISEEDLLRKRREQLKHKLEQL
Technique: protein-binding microarray
Form: double-stranded DNA, one strand shown
Matrix: in vitro
Concentration: not given
Notes: k-mer, scored over probes, only values ≥0.25
Direction: higher = stronger binding
Quantity: E-score
CACGTTGC: 0.437
GACCACGC: 0.466
CAGCATGG: 0.452
CGTGATAG: 0.253
GAGTGCAC: 0.268
CGCCACGC: 0.45
AATCCGCA: 0.251
CGTGCTGA: 0.36
GCGTCCAC: 0.254
CGTGGAAC: 0.28
AGGCGCAC: 0.289
CCTCGCAC: 0.293
CCACGTGC: 0.496
CGCACCAC: 0.349

For quick reference, copied from above (sample 2):
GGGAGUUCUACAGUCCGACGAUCCUUCACACCAUGGGAUAAAUCUGUAUCAAGACGGUUCUUUUCUAGAUUUCCUCUACCUUUUUGCUCUUAAAACUGCUUCUCUGCUCUGAGAAGCACAGCUACCUGCCUUCUGGAAUUCUCGGGUGCCAA: 0.619
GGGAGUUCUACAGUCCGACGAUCUGAAAAUAAAGCAGUCUCGGGCAGAGACGCUGUGUGACAUGUUGGCUGACAAAUUAGUCAUUGCUUAAACACAGUUCAUGCAGAUUAAACACAAAUCAAGUUCCAAAUUUUGGAAUUCUCGGGUGCCAA: 0.305
